Published values gathered from unrelated publications.
Each numbered part is a random draw from the data of one study; scales do not carry over between parts. Substitutions count along the parent as printed.

Block 1
Target: ABI1, truncated, D143A, DHFR fusion (Arabidopsis thaliana)
Method: DHFR PCA, deep sequencing
Medium: yeast
Setting: methotrexate growth selection, single substitutions
With: (+)-ABA 0.11 µM
Baseline: wild-type fitted maximum
Direction: higher = stronger binding
Quantity: relative binding score
Parent: PYL1, truncated, DHFR fusion (Arabidopsis thaliana); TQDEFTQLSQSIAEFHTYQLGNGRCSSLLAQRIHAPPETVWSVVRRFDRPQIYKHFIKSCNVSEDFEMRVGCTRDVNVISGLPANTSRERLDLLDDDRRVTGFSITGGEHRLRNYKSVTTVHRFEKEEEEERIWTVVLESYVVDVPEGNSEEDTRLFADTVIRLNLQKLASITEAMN; partner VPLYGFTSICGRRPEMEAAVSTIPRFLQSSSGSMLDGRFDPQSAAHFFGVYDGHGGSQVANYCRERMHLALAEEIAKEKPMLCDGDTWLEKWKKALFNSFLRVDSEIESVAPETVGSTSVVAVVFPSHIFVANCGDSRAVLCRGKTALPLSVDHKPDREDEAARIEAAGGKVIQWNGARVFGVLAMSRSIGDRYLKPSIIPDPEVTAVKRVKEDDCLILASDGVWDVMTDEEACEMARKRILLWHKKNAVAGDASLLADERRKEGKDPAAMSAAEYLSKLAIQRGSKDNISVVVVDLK
D159N: 22.5%
T101A: 7.24%
A158H: 38.3%
R99I: -1.85%
E64Y: 3.83%
T154V: 41.3%
S27Y: 9.92%
E125S: 45.8%
D92P: -10.3%
R69H: 33.5%
E147M: 12.2%
S59R: 0.831%
L138H: 1.45%
T86W: 75.1%
V136C: 0.888%
D159Y: -2.44%

Block 2
Target: CCNB3, cyclin fold, Cln2 fusion (human)
Method: yeast growth competition, sequencing
Medium: yeast
Setting: weak parent motif
Baseline: not given
Direction: higher = stronger binding
Quantity: normalised enrichment score
Parent: DOT1L docking peptide (human); SEAKRRIVFTITT
SEAKRRIVFTIAT [T12A]: 0.287
SEAARRIVFTITT [K4A]: 0.233
AEAKRRIVFTITT [S1A]: 0.393
SEAKRRIVFTITA [T13A]: 0.259
SEAKRRAVFTITT [I7A]: -0.0539
SEAKRRIVFAITT [T10A]: 0.0613

Block 3
Target: RNA binding protein fox-1 homolog 2, RRM domain, GST-SBP tag (RBFOX2, Homo sapiens, UniProt O43251-10, residues 100-194)
Method: RNA Bind-n-Seq
Molecule type: RNA
Medium: in vitro
Concentration: 365 nM
Setting: natural RNA segment, single round, ends assumed
Baseline: no-protein control
Direction: higher = stronger binding
Quantity: RBNS enrichment (R)
Constant ends, left off below: GGGAGUUCUACAGUCCGACGAUC … UGGAAUUCUCGGGUGCCAA
Construct (chain): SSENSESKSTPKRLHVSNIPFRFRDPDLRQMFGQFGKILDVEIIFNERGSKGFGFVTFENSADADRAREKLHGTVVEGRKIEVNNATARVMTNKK
UAGUUCUGUUAUUUAUACUUGGUGUUGCUUGUCAUGGACACCGGUGAACAUGCCGUAACUCUGUGACUGCAUUGUAAGUGCAGUGGGGGUAAGCAGUCCUGUGAGUGGCG: 2.77
CUUCAUAAAAAUCUGACCAAUCUACUAAAAUACUGCAGGCGUGAAAGGUUCUGUUGGAGCUGAAUGUCAUGAUGUUUAUCAUCCAGCAAGCCCUCCUUCUCACAUAGCAA: 0.424
CUUGGCAUGAAGGCAUGUUUUCCUUCUGGGGGUGGUGACAUGCCCUCCAGACGGCCUGCCAUCCAGCCCUCUGGCCUGAGGAAGACCCCCAUAGGCUCCGGACAGGCAGG: 4.15
GUUCCAUUCUUGGCAUCUACUCUGGACCAAGGAGCAUCCCUAAUUCUUCAUAGGGACCUUUAAAAAGCAGGAAAUACCAACUGAAGUCAAUUUGGGGGACAUGCUAAAUA: 0.337
GCUGCCAUCCCCUCCCCGUUUCAGUGGACCCUGUGGCCAGGUGCUUUUCCCUAUCCACAGGGGUGUUUGUGUGUGUGCGCGUGUGCGUUUCAAUAAAGUUUGUACACUUU: 1.49
GAUGUGUUGGGCCUUUUCUAGGAAAGGGACCAAGCCCCUUCAAGUGGGGAGGCCCAGAGUUACCUGCCAUAUCCCACAUAGUGGAGGCGUUCCCGCAGCCGCCACCACUA: 0.421
UGAUGGUGUACUCUGCCCUGCGCAUCCCACCCGAGGAUGAGGGAACAUGGGGGGGCCCCUGGGCCUGGGGUGCCCUCCCGAUCUCCUCGUCCCGUAUUUCUCCAUCUCCA: 0.352
CAAUGGUGUAGCGUCUUCCAAGGCCUUACUUUUUUUUCAGAAUGCUUUAAGUGUUGGCUGUAUGUGCUGGGUUCUCUAAAGAAGUUUCUCUUCCCGAGCUGUUUUUCCGA: 2.92
UGAUAGGCAGGACUGAAAAACCAAAGAGCACAUGCACUGAGCUAUCUUGAAGUCCGUUAUAUGCAGAAUGAAGUUUUGCCAAGUCUGCUGGCAUUCACACGCUUCCAUGG: 0.781
UCACCUGCUAGUACAAUCUCCACAACUUGAAUGGCAUUGGUUGUUCUGUAAUUCCUGCCAAAAGCAUCACAAGUUGUACAUCAUCAAGGCUCCCUUUGCACUCCCAAGAA: 1.59
CGAGCACUGAGCUGGCCCUACUUCCAGGAUGGAUGCAUCACACUCAAGGACAGGAGCCUGGUCCUUCCCUGAUGGCCUUUGGACCCAGGGCCUGACUUGAGCCACUCCUU: 2.74
UUUCCAUAACCACAAGCCUGAGGCUGCAGCCUUUUAUUUAUGUUUUCCCUUUGGCUGUGACUGGGUGGGGCAGCAUGCAGCUUCUGAUUUUAAAGAGGCAUCUAGGGAAU: 2.41

Block 4
Target: Ras GTPase-activating protein-binding protein 1, full length (G3BP1, Homo sapiens, UniProt Q13283)
Sequence of UniProt Q13283 (whole entry, looked up): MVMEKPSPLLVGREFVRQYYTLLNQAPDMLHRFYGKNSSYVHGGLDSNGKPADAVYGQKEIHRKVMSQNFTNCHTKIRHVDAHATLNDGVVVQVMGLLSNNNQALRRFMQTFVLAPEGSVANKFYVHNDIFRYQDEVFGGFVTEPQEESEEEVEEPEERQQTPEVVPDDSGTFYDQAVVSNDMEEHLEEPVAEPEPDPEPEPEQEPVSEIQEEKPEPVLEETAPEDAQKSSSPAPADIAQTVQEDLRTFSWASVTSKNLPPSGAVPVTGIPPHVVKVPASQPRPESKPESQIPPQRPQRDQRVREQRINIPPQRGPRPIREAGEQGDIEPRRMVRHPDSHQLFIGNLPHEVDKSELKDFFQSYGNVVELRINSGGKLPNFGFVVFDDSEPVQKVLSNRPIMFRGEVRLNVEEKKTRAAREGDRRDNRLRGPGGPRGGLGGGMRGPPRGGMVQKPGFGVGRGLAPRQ
Method: RNA Bind-n-Seq
Molecule type: RNA
Medium: in vitro
Concentration: 200 nM
Setting: whole 134-nt RNA, ends assumed
With: 150 mM LiCl
Baseline: input library
Direction: higher = stronger binding
Quantity: log2 enrichment
All molecules: 7-deaza-guanosine replaces G
Constant ends, left off below: GGGAGUUCUACAGUCCGACGAUC … UGGAAUUCUCGGGUGUCAAGG
UAACUUUAGAUGAGGAUCUGAUGGAUAUGGCAGUGGACGUGGAUUUGGGGAUGGCUAUAAUGGGUAUGGAGGAGGACCUGGAGGUGGCAA: -0.178
CCUGUGCUACACAUCGUAUGUACCGAAUCGGGGAAAAAAGGGGAAAAAAGGGAAAAAAGGGAAAGUAUUAUGUUACGCCGUUCGGAUCUG: 0.604
UCAAGUCCUGUGCUACACAUCGUAUGUACCGAAUCGGGAAAGGGAAAGGGAGGGAAAGUAUUAUGUUACGCCGUUCGGAUCUGCACUUCC: -0.0741
AGUCCUGUGCUACACAUCGUAUGUACCGAAUCGGGUUUUUGGGUUUUUGGGAAAGGGAAAGUAUUAUGUUACGCCGUUCGGAUCUGCACU: -0.504
AAGUCCUGUGCUACACAUCGUAUGUACCGAAUCGGGGAAAAGGGGAAAAGGAAAAGGAAAGUAUUAUGUUACGCCGUUCGGAUCUGCACU: 0.322
CCUGUGCUACACAUCGUAUGUACCGAAUCGGAAAAAAGGGGAAAAAAGGGGAAAAAAGGGAAAGUAUUAUGUUACGCCGUUCGGAUCUGC: 0.109
UACCAAUUGGCCUUUAUUGACUGUAUCCAAAGGAUUUUUUGAAGGCACCAUUGCCAGCAAAGGUAAGUACCUAUUUCUCCCAUAGCACUU: 0.31
GCAGGAAGUAAAAACAAAUGGAAAUGCUUCGGAUAGUGGCAGGGGUGGGGGUUGCUAAGGAAAGGGUGGGAUGGGAGUGGGUCAAGAGUU: -0.14
GUCCUGUGCUACACAUCGUAUGUACCGAAUCGGGGAAAAAGGAAAAAGGAAAAAGGGGAAAGUAUUAUGUUACGCCGUUCGGAUCUGCAC: -0.049
UCGCCCUGGUGGCAUGCGGGGAGGAAGAGGUGGCCUCAUGGAUCGUGGUGGUCCCGGUGGAAUGUUCAGAGGUGGCCGUGGUGGAGACAG: 0.517
UCAAGUCCUGUGCUACACAUCGUAUGUACCGAAUCGGGUUUGGGUGGGAAAGGGAAAGUAUUAUGUUACGCCGUUCGGAUCUGCACUUCC: -0.942

Block 5
Target: Interferon regulatory factor 5, full length, phosphomimetic (IRF5, Homo sapiens, UniProt Q13568-2, residues 1-514, K96S/S451D/S453D/S456D/S462D)
Method: protein-binding microarray
Molecule type: double-stranded DNA, one strand shown
Medium: in vitro
Concentration: 250 nM
Setting: 60-bp whole probe
With: salmon DNA 0.4 mg/ml
Baseline: random background probes
Direction: higher = stronger binding
Quantity: log fluorescence
Constant ends, left off below: GCCTAGCAC … GTCTTGATTCGCTTGACGCTGCTG
CTAGTTTTACTTTCTATCTCGTGCTAG: 5.31 z-score
TTTGGAGTCATTCTCAACCCGTGCTAG: -0.126 z-score
GACGCTTCCGGTTTCGGGACGTGCTAG: 5.18 z-score
TCACTTTCAGTTTTCCTACTGTGCTAG: 8.95 z-score
GACGGTATCGACATTGGGGACGTGCTA: 1.83 z-score
GACGGTCTTGGTTTCGGGACGTGCTAG: 3.38 z-score
TCAAAAATGGAAACTCGTACTGTGCTA: 0.54 z-score
GACGGACTGGGTCTCGGAACGTGCTAG: -0.503 z-score
TCACCTATAGGGCCTGACACTGTGCTA: -0.36 z-score
GACGGTCTCGGACTAGGGACGTGCTAG: -0.243 z-score
TTAGGACGGGGTATCGGTTAGTGCTAG: 2.74 z-score
GACGGACTGGACTAACGGGACGTGCTA: -0.734 z-score
GACGATTGCGGGTTTCGAGACGTGCTA: 1.64 z-score
TTAGGCTTCCTTATCCTTTAGTGCTAG: -0.0741 z-score
TTTTGCTTTCCTTTATGTACGTGCTAG: 5.34 z-score
ATGGAAATCTCAATGGGTTAGTGCTAG: 0.375 z-score
CAAGTTACCCACCTCAGGTAGTGCTAG: 0.0147 z-score
GACGGTAACGGGACTGGGGACGTGCTA: -0.603 z-score
GACGGACTAGGTATCGGGACGTGCTAG: 0.468 z-score
GACGGTTCCGTTTTCGGGACGTGCTAG: 1.95 z-score
TTAGAACTGGGGTACCGATTAGTGCTA: -0.364 z-score
GAGGATCTCAGACTGGAGACGTGCTAG: -0.67 z-score
TTAGGTATCGACTATCGGTAAGTGCTA: 7.29 z-score
ATTTGCTTCAGGTTTACCAGAGTGCTA: 0.288 z-score

Mixed results
PhoQ, residues 284 288 289 292 302 303 NLMGRA
fold induction (PhoP, residues 12 14 15 18 19 IQFRS (Escherichia coli, UniProt P23836); Sort-seq, measured: YFP reporter; E. coli; PhoQ-PhoP variant library, with: 10 µM Mg2+; baseline: high Mg2+ state, higher = stronger signaling): 16.6

For quick reference, copied from above (block 1):
T154V: 41.3%
S27Y: 9.92%
E125S: 45.8%
D92P: -10.3%
R69H: 33.5%
E147M: 12.2%
S59R: 0.831%
L138H: 1.45%
T86W: 75.1%
V136C: 0.888%
D159Y: -2.44%
